{"data": "Results of several laboratories", "note": "A part holds a random share of what one study measured. Changes are numbered by the printed parent chain."}
{"data": "Series 1", "target": "FOSL1, bZIP domain (human)", "technique": "DHFR protein complementation", "matrix": "yeast", "notes": "single substitutions, most at no-binding floor", "baseline": "wild-type JUN-FOS pair", "reading": "higher = stronger binding", "starting sequence": "JUN, bZIP domain (human); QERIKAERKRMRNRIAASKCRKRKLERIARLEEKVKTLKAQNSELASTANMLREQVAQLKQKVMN; partner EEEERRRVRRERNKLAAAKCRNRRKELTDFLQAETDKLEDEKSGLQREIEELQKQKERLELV"}
{"Variant": "V35M", "binding fitness [natural log]": -0.382}
{"Variant": "L38I", "binding fitness [natural log]": -1.08}
{"Variant": "L38Y", "binding fitness [natural log]": -1.38}
{"Variant": "L52K", "binding fitness [natural log]": -1.23}
{"Variant": "A46N", "binding fitness [natural log]": -0.496}
{"Variant": "K34Q", "binding fitness [natural log]": -0.56}
{"Variant": "A40R", "binding fitness [natural log]": -0.401}
{"Variant": "R30I", "binding fitness [natural log]": -0.367}
{"Variant": "E33C", "binding fitness [natural log]": -0.716}
{"Variant": "E44Y", "binding fitness [natural log]": -0.808}
{"data": "Series 2", "target": "Sal-like protein 4, full length isoform B (SALL4, Homo sapiens, UniProt Q9UJQ4-2, residues 1-616)", "technique": "universal PBM", "form": "double-stranded DNA, one strand shown", "matrix": "in vitro", "tested at": "not given", "notes": "8-mer, flanks averaged, mean of replicates", "reading": "higher = stronger binding", "Target sequence (chain)": "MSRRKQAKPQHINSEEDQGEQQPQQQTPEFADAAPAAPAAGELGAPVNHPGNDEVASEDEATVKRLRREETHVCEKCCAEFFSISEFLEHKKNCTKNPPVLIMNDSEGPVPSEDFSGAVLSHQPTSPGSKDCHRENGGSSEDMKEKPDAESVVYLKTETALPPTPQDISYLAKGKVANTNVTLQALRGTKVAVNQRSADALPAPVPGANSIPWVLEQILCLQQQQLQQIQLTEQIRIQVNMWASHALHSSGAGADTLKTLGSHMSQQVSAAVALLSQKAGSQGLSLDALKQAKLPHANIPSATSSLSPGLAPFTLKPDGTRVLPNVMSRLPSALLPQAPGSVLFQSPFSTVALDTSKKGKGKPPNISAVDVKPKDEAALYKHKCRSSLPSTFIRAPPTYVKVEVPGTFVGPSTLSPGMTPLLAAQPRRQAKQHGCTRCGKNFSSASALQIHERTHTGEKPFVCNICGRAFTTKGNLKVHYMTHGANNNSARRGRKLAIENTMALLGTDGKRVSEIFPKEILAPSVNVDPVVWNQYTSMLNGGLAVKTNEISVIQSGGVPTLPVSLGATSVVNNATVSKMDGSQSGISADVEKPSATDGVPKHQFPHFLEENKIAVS"}
{"Sequence": "GTTTAGGA", "E-score": -0.0955}
{"Sequence": "GCGCTGTA", "E-score": -0.128}
{"Sequence": "TCGCGTAA", "E-score": 0.155}
{"Sequence": "CGTAACTC", "E-score": -0.0477}
{"Sequence": "GAAGCATC", "E-score": -0.0879}
{"Sequence": "AGAAAACA", "E-score": 0.189}
{"Sequence": "GCCGCAGC", "E-score": -0.33}
{"data": "Series 3", "target": "CCND1, cyclin fold, Cln2 fusion (human)", "technique": "yeast growth competition, sequencing", "matrix": "yeast", "notes": "weak parent motif", "baseline": "not given", "reading": "higher = stronger binding", "starting sequence": "DOT1L docking peptide (human); SEAKRRIVFTITT"}
{"Variant": "R5A", "normalised enrichment score": 0.143}
{"Variant": "I11A", "normalised enrichment score": 0.0702}
{"Variant": "T13A", "normalised enrichment score": 0.526}
{"Variant": "S1A", "normalised enrichment score": 0.45}
{"Variant": "I7A", "normalised enrichment score": -0.0324}
{"Variant": "T12A", "normalised enrichment score": 0.237}
{"data": "Single results of other studies"}
{"Molecule": "PhoQ, residues 284 288 289 292 302 303 GLASVI", "target": "PhoP, residues 12 14 15 18 19 LHSVW (Escherichia coli, UniProt P23836)", "test": "Sort-seq, refers to: YFP reporter", "system": "E. coli", "conditions": "PhoQ-PhoP variant library, with: 10 µM Mg2+", "how to read": "baseline: high Mg2+ state, higher = stronger signaling", "measurement": "fold induction", "result": 1.67}
{"note": "For quick reference, copied from above (series 3):"}
{"Variant": "I7A", "normalised enrichment score": -0.0324}
{"Variant": "T12A", "normalised enrichment score": 0.237}
{"Variant": "R5A", "normalised enrichment score": 0.143}
